# Results pooled from the literature.
# Numbered parts are unrelated; each lists some results of a single study. Substitutions count along the parent as printed.

# Study 1
# Target: Interferon regulatory factor 7, full length, phosphomimetic (IRF7, Homo sapiens, UniProt Q92985, residues 1-503, S101K/S471D/S472D/S475D/S476D/S477D/S483D/S484D/S487D)
# Method: protein-binding microarray
# Form: double-stranded DNA, one strand shown
# Medium: in vitro
# Concentration: 250 nM
# Setting: 60-bp whole probe
# Together with: salmon DNA 0.4 mg/ml
# Relative to: random background probes
# Direction: higher = stronger binding
# All sequences stand within: GCCTAGCAC … GTCTTGATTCGCTTGACGCTGCTG
# Construct (chain): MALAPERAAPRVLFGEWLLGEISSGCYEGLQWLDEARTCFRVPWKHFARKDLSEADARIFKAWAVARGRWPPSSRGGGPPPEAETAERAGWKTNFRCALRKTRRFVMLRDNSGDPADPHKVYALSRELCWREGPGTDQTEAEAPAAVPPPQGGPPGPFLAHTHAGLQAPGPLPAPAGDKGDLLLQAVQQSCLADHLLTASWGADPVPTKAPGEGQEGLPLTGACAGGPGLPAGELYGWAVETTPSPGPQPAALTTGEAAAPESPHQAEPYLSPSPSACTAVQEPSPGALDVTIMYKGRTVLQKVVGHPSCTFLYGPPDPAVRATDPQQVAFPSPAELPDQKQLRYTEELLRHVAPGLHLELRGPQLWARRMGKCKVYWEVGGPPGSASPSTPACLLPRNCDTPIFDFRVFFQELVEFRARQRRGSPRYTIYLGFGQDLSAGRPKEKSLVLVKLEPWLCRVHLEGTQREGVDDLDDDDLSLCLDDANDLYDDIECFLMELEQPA
Oligonucleotide,log fluorescence [z-score]
GACGGTCTCGTTCTCCTGACGTGCTAG,2.25
TTAGGTATCGGTAGCGGTTAGTGCTAG,0.134
TCACCTTGAGGTTTTCTCACTGTGCTA,-0.558
ATAGGTCTCCTTATCCTTTAGTGCTAG,0.551
TCAGGTTTCCTTATCCTTTAGTGCTAG,3.14
TTAGGTCTCCTTTTCCTGTAGTGCTAG,1.95
GACGGTTTCTACTATCGGGACGTGCTA,1.41
TTACGTATCGGGTATCGGTTAGTGCTA,0.986
TTAGCTCTCCTTTTCCTTTAGTGCTAG,0.695
GACCGTATCGGGACTGGGGACGTGCTA,0.394
GACGGTATCCTTCACCTGACGTGCTAG,-0.42
GAGTGGTTCTGCTTCTTAGCGTGCTAG,0.259
TTAGGACTGGACTCTCGGTTAGTGCTA,-0.0683
TCACCTTGGCCTCTAGGACTGTGCTAG,-0.507
GACTGTATCGGGACTGGGGACGTGCTA,-0.0316
GACGCACTGGACTATCGGGACGTGCTA,-0.224
GACTAACTGGGGACTGGAGACGTGCTA,-0.12

# Study 2
# Target: RING finger protein unkempt homolog, zinc fingers 1-6, SBP tag (UNK, Homo sapiens, UniProt Q9C0B0, residues 30-357)
# UniProt Q9C0B0, sequence (30-357, looked up): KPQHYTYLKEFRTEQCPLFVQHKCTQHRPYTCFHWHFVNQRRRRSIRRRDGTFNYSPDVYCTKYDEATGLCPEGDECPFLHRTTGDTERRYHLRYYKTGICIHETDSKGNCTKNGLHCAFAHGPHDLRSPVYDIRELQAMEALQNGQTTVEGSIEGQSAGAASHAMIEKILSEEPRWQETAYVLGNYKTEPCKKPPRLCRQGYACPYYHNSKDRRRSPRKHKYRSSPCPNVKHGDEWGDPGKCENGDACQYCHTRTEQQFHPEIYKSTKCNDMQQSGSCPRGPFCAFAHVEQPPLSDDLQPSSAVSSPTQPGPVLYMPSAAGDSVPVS
# Method: RNA Bind-n-Seq
# Form: RNA
# Medium: in vitro
# Concentration: 100 nM
# Setting: RNA with constant flanks, vertebrate orthologous sites, ends assumed
# Relative to: input RNA pool
# Direction: higher = stronger binding
Oligonucleotide,bound/input enrichment
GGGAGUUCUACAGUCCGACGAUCAGAAAAUUUUAACCAGGAAUCUGAAGGUAGAAAUACAGGACCAUGGUUAUCUUCCUCACUUAGAAAUAGAUGCACACCUUUGUUCUCUAGAAGGAGACGAGAGGGACGAGAUGAAUCUUCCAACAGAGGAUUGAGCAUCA,0.766 ratio
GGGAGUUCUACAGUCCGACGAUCGAUUUGGACCUUGGAGCUGAACCUGAGAGCUAGCAAAAGUGAAGCAGACUCGUAAAAUUAUAGCUGUGUGCAGCUGCACAGAACAGCUGCAUUAAAGUAUUUAUAAAGAGAAAUUUUCAGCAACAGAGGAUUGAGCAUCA,0.28 ratio
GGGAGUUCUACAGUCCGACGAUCUGUGUGGUGCAGCGUGCUCUGGACCAGUGCUCACCAUCCCUUCUUCAUAUCAACUGUCCCUAGUUAUAGCAGUUUAAUAUUUUUAAAAGUUUUACAUUGCUGUAUAUUCAAAGAUUUGUUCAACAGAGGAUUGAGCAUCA,0.559 ratio
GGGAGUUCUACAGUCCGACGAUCCCCCGUUUUUAAAUGCCCUUUUGAUGCUCCCAGCAGCACCAUUUGUACAGUUUUUCUCUAAAAACAAAAAUGUUGAUUCGAAUUUCUUGUAUUUAAGUUUAAAUUGUUACAACAUUUUAGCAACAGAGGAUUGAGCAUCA,0.189 ratio
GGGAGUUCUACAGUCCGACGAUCAAAUUUAUUUCAUGCCCUGGACUCCCUACCGUACCGAUACAUUAAUAGAGUAUGCUUCUAUAGAAGAUUUCCAAAACAGUCGCCAGACAACAACAUAUAAACUUCCAAAUCGAGUAGAUGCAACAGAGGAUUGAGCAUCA,1.15 ratio
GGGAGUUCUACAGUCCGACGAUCUAUUAAGCAUCUUAAUAAAUUACUGGAGAUUCCUGAAGUCCAUUUUGUAGGAUCAGAUCAUAGGAUGGUGUUGUUUAAGUUUGUGUACUGUGUCCAGAGUUACAUUUUUAAAAGUGUUAACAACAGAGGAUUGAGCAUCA,0.442 ratio
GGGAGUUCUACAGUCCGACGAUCGUGCAAGGAAAUUAUUCCAACUAGUGAAUUUAUUAACAGUAAGUUAACAGCAAAAGCAAAUAGGCAACUUCAAGAUCCUUUAGUAAUCAUGACAGGAAACAUCCCAACAUGGCUUACUGACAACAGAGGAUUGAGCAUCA,1.05 ratio
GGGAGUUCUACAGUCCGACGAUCUUGUGAGGAGUGGGAAAGAUGAGAUUCUUCUCCCUCCAAGUAAAACUGACAUAAUUUCCUUUUAGUUCUGUCUUUUGAAACAAAGAUGCCCUUUUCUCUUAAUUGUGUGACACCACUAUCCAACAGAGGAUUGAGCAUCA,0.596 ratio

# Study 3
# Target: ABI1, truncated, D143A, DHFR fusion (Arabidopsis thaliana)
# Method: DHFR PCA, deep sequencing
# Medium: yeast
# Setting: methotrexate growth selection, single substitutions
# Together with: (+)-ABA 0.39 µM
# Relative to: wild-type fitted maximum
# Direction: higher = stronger binding
# Starting sequence: PYL1, truncated, DHFR fusion (Arabidopsis thaliana); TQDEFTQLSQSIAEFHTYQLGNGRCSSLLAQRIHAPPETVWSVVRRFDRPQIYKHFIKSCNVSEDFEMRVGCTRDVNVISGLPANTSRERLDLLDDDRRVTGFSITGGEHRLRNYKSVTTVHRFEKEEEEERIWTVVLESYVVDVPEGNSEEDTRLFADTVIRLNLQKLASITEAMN
Variant,relative binding score
I57N,-21.7%
C72Q,52.7%
A84I,25.1%
A13W,6.04%
P36G,0.537%
S42M,12%
K54M,-11%
T154K,3.73%
W134L,30.9%
L112T,-9.26%
T39Q,23.3%
Q51A,-3.89%
H34R,41.4%
V118I,36.2%
E14I,-3.52%

# Study 4
# Target: CCNA2, cyclin fold, Cln2 fusion (human)
# Method: yeast growth competition, sequencing
# Medium: yeast
# Setting: strong parent motif
# Relative to: not given
# Direction: higher = stronger binding
# Starting sequence: REPIN1 docking peptide (human); QSFRGWVALVLHL
Variant,normalised enrichment score
QSFRGWVAAVLHL [L9A],1.25
QSFRGWVALALHL [V10A],0.979
QAFRGWVALVLHL [S2A],1.4
QSFRGAVALVLHL [W6A],0.992
QSFRGWVALVAHL [L11A],2.05
QSFRGWVALVLHA [L13A],1.83

# Study 5
# Target: RNA binding protein fox-1 homolog 2, RRM domain, GST-SBP tag (RBFOX2, Homo sapiens, UniProt O43251-10, residues 100-194)
# Method: RNA Bind-n-Seq
# Form: RNA
# Medium: in vitro
# Concentration: 365 nM
# Setting: natural RNA segment, single round, ends assumed
# Relative to: no-protein control
# Direction: higher = stronger binding
# Construct (chain): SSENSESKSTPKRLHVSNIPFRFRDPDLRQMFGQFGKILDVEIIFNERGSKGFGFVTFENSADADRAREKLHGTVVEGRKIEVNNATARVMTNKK
Oligonucleotide,RBNS enrichment (R)
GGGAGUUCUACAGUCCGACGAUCUUUUUAAAAGAAUGUCUGCCCUCACACACUUUUAUGGAUUUGUUUUUCUUACAUACCCAUCUUUUAACUUAGAGAUAGCAUUUUUUGCCCUCUUUAUUUUGUUGUUUGUUUGGAAUUCUCGGGUGCCAA,0.398
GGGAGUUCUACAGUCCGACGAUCCUUCCUUACCACGGCCCACGUAAAUGUGACCCUGGACAUCUGUCACACGAAAGCUAAGCUGGUGGCCUUCCCCGCCAGCCCCUCGCAGGAUGGGGGUUUCAAUGUGAAACUGGAAUUCUCGGGUGCCAA,0.269
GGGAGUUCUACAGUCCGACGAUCAUCCUUCUGAUUGGGUGGGGCGAGCAUCCCAGUGUCCAAAAAUUCCAGCCUAAAUGACAGGUCCUCUGAAAAAGAGGUGCUGAGGAGUAAUGGGGCCAGCUGAUUAAAGAUGGAAUUCUCGGGUGCCAA,0.566
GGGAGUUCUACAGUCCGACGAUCUGUGUGCUGCUUGACCACCCCCCCUUCUGUUCACCUGCCCCCCUUCUGUUUGGCUUUGGCUUUUUGUUGGGGUGAGAGCCCUAGCUCCCAGCUCCCCUCACUAUCUUUUGUGGAAUUCUCGGGUGCCAA,0.582
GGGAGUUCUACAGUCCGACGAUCGCUCUCAGCCCUGCAGAAACCACCUCUUCCUUUGUCUUUGAAUGCAACUCAUAGCCAAGGUGGUCUGAUCGUAGACAUUCCUUCCCUGCCCCAUGCGCUUGCCUCUCUCUUGGAAUUCUCGGGUGCCAA,4.44
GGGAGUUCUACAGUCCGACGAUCGCCUCGUCACCUCCAGUUGGGUGCCUCUGGGUUCCCACUGGCUCUGCCCAGGUGGGGUGGGGUGGCCCAGGCAGCAGAAGGUUCCCUGAGGUCCCAGAGCCUGUUCCGUUUGGAAUUCUCGGGUGCCAA,0.166
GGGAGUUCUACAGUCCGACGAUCCUACCAGAUUCUGCCUAUGUAAAAUGAAUUGAAAAACAAUUUUCUGUAAUCUUUUAUUUAAGUAGUGGGCAUUUCAUAGCUUCACAAUGUUCCUUUUUUGUAUAUUACAAUGGAAUUCUCGGGUGCCAA,0.575
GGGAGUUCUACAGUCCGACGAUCGUUUACCCGGAGAAUUUUUUUCUCCCCAUUUGUUUUGUUUUUACUCAAUGACACCAUUUUUAGUUUUAUUUCCUGAUAGCAAAAGGAAAAAAAACACCCAUCCCUCAAAAUGGAAUUCUCGGGUGCCAA,1.26
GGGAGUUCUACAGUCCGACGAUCUACGUGGUUGUCUGCUUUCCUAAGGACUCCCAUUUCCAGUAUUAAAGAGAGAAUCAUCAUCAAGGCACCGUAGGUAACUCAGUGGCUGUGACCAGCUCGACUGGCGGCCAUGGAAUUCUCGGGUGCCAA,0.57
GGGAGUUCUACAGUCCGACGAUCAGGGCGGAGCCAUCCAGAGCUCUCAGAAUGGAUGCUGCCGGCAUCACCGCCCCCACCCCACCCUCAGGCUGGAGCUCUGGGUGUGGGCAGGGACUGUGGCCCUGGAUUGCUGGAAUUCUCGGGUGCCAA,1.27
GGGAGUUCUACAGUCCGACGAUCUGGUCUGUGUCACCGUAUCUCAGGAAGUCCAGCCACUUGACUGGCACACACCCCUCCGGACAUCCAGCGUGACGGAGCCCACACUGCCACCUUGUGGCCGCCUGAGACCCUGGAAUUCUCGGGUGCCAA,0.263
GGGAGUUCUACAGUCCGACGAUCGGAUCUUCCCACUUUGCCACUGGAUGACUUUGGAUGGGUCACUUGUCCUCAGUUUUUCCUAGUCAUAAUGUCAUACGAACCUAAAGAAUAUGAAUGGAUUAAAUGUUAAAUGGAAUUCUCGGGUGCCAA,0.802

# Single results of other studies
Molecule,target,test,test system,setting,scale,measurement,value
"PhoQ, residues 284 288 289 292 302 303 GASLAW","PhoP, residues 12 14 15 18 19 VHSCL (Escherichia coli, UniProt P23836)","Sort-seq, refers to: YFP reporter",E. coli,"PhoQ-PhoP variant library, together with: 10 µM Mg2+","relative to: high Mg2+ state, higher = stronger signaling",fold induction,1.14

# Excerpt of the above (study 4):
Variant,normalised enrichment score
QSFRGWVALVLHA [L13A],1.83
QAFRGWVALVLHL [S2A],1.4
QSFRGWVAAVLHL [L9A],1.25
QSFRGAVALVLHL [W6A],0.992
QSFRGWVALALHL [V10A],0.979
QSFRGWVALVAHL [L11A],2.05
